Measured values gathered from unrelated publications.
Numbered parts are unrelated; each lists some results of a single study. Changes are numbered by the printed parent chain.

Block 1 — method: RNA Bind-n-Seq; form: RNA; sample: in vitro; tested at: 90 pmol; setting: 4-mer, random 30-nt RNA, single round; together with: 3 µM DMDA-PatA, 2 mM ADP, 2 mM phosphate; baseline: input library; direction: higher = stronger binding
Target: ATP-dependent RNA helicase DDX3X, helicase core (DDX3X, Homo sapiens, UniProt O00571, residues 132-607)
UniProt O00571, sequence (132-607, looked up): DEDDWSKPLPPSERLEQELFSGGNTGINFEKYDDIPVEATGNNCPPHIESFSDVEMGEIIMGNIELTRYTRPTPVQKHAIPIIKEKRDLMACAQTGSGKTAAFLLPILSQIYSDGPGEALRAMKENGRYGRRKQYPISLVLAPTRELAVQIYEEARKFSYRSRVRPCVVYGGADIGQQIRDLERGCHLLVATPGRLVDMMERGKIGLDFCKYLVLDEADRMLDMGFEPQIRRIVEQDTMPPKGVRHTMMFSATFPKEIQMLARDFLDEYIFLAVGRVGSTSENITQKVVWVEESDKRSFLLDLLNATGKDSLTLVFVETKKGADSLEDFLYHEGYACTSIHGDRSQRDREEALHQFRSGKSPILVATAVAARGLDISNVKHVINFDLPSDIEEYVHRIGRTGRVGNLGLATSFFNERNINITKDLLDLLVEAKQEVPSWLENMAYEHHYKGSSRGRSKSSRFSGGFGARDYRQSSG
Oligonucleotide	4-mer enrichment [fold]
GAGC	1.01
GCGG	0.994
AGUA	1.13
GGAU	0.936
GACC	0.891
CCGU	0.871
GUGC	0.977
GGGA	1.24
UCGA	0.896
AUGU	1.01
GGAG	1.32
UCAC	0.947
CGCC	0.948

Block 2 — method: protein-binding microarray; form: double-stranded DNA, one strand shown; sample: in vitro; tested at: 940 nM top; setting: 60-bp whole probe; together with: salmon DNA 0.4 mg/ml; baseline: random background probes; direction: higher = stronger binding; all sequences stand within: GCCTAGCAC … GTCTTGATTCGCTTGACGCTGCTG
Target: Interferon regulatory factor 5, full length, phosphomimetic (IRF5, Homo sapiens, UniProt Q13568-2, residues 1-514, S451D/S453D/S456D/S462D)
Oligonucleotide	fitted relative affinity [z-score]
CTGTGTGTCAGGTTTACTAGGGTGCTA	-0.574
GACGGTTTCCACACTGGGGACGTGCTA	0.587
TTGTGTCTGGGCTTTTTCCCCGTGCTA	-0.728
TTAGGACTGCTACTCCTTTAGTGCTAG	-0.229
TGGTCTTTCCACTTTCTTTTGTGCTAG	1.81
CTATATTTGCTTCAGGTTTAGTGCTAG	0.176
GATTTTTTCTGCTTAGAGCTGTGCTAG	0.0395
GTGTATATGTGATTAAAATAGTGCTAG	0.186
TTAGGTCTGGACACTGGGTTAGTGCTA	-0.621
TTAGGTTTCGGTTCCGGATAGTGCTAG	14.7
GATGGTTTCGGGACTGGGGACGTGCTA	8.48
GACGGTTTGGGGTATCGGGACGTGCTA	0.902
CTAGTTTTTACTTTCTGAATGTGCTAG	1.5
TCACATATTTATCTGCAACTGTGCTAG	0.434
CCTCTTTTTTGTTCCACGCCGTGCTAG	1.53
GCCGGACTGGGGACTGGGGACGTGCTA	-0.207
TCACCTTCACCTCTCTGACTGTGCTAG	1.07
TTAGGACTCGGTCTCGGTTAGTGCTAG	1.65
GACGAACTTAGACTGGAGACGTGCTAG	-0.443
TCTGTTTTTGCTTTCCTTCAGTGCTAG	2.02
ATAGATCTCAGTATCGATTAGTGCTAG	4.5
GTCGATTTCAGTCTCGAGACGTGCTAG	3.28
TTAGATATCATTCTCGATTAGTGCTAG	2.73

Block 3 — target: CCND3, cyclin fold, Cln2 fusion (human); method: yeast growth competition, sequencing; sample: yeast; setting: weak parent motif; baseline: not given; direction: higher = stronger binding
Starting sequence: CDKN1C docking peptide (human); TSACRSLFGPVDH
Substitution	normalised enrichment score
L7A	0.0696
T1A	0.144
R5A L7A	-0.101
F8A	0.138
P10A	0.127
F8L	0.139
R5K	0.422
G9A	0.145
C4A	0.121

Block 4 — method: competition protein-binding microarray; form: double-stranded DNA, one strand shown; sample: in vitro; tested at: 2 µM; together with: Pho4 competitor, 0.05 µM; direction: higher = stronger binding
Target: Centromere-binding protein 1, full length, His-tagged (CBF1, Saccharomyces cerevisiae, UniProt P17106, residues 1-351)
UniProt P17106, sequence (whole entry, looked up): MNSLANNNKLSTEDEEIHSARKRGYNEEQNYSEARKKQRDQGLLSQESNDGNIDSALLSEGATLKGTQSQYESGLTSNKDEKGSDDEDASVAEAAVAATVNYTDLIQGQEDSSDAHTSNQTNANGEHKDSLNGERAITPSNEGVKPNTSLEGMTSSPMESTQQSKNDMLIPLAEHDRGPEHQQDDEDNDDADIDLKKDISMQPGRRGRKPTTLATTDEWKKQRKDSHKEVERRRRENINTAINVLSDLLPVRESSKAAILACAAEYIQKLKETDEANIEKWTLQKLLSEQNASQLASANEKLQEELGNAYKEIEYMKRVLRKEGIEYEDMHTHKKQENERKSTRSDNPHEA
Setting: whole 60-bp probe, lowest competitor level
Oligonucleotide	fluorescence intensity [a.u.]
ACCGAGGACCAGGCCCATGTGGCAGAGTAGCTGCTGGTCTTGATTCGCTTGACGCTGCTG	53
AAATTACTAAGTTTGCACGTGTTTTACCCCGTATGAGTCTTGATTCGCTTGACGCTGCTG	2210
TTCAGCTTGGCTATTTTGTGAACACTGTATAGCCAGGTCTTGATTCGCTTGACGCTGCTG	74.2
CTTCTGTAAATTTGCGGAGTGGGTGGACGCGCCCCGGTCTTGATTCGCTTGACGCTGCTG	81.7
AAATTACTAAGTTTTCACGTGGTATACCCCGTATGAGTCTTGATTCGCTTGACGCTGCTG	865
TTATCTTCAACAAGAAACGTGACGGTACTCATAAAGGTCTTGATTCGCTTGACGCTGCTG	561
ATCCGCGCCCTTTGGCGTGTTCACCACAGAGTCGCGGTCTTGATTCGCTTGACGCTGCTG	58
CTTCTGTAAATTTGAGTAGTGGGTGGACGCGCCCCGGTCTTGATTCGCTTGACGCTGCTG	97.7
TGCGCAACAACTTGTCACAACACTTTATGTCTAGAAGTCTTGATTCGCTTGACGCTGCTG	103
CTTTCCCGATCTTGTGACGTGGGTGTAGCACATTTGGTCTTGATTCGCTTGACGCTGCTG	210
AGTAGCGATGACTGTCATGAAGATGAAAGGGTGCGGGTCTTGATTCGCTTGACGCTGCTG	69.9
ACCGAATCTTCGTTCCACGTGGTTACCTGTCATGGTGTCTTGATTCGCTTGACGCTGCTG	1100
ATATAGTAAATAAAACACGTGATGGATTTGAAATGTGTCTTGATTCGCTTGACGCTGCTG	6800
TACCCGGATACTTATCATGTTATGGTCTTTAATCAAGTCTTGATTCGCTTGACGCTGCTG	88.5
GGTACAATCCGTTTGAACGTGACGGGGTTTGTTACAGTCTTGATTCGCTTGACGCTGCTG	256
CAGGGGGAGCAAGTGCATGATCAGAAGGACCAATCTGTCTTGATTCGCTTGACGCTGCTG	92.7
AAAGCGGTAATTTGTCACACCACTTCACATATCTATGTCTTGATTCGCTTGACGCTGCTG	149

Block 5 — method: universal PBM; form: double-stranded DNA, one strand shown; sample: in vitro; tested at: 600 nM; direction: higher = stronger binding
Target: Sal-like protein 4, full length isoform A (SALL4, Homo sapiens, UniProt Q9UJQ4, residues 1-1053)
UniProt Q9UJQ4, sequence (whole entry, looked up): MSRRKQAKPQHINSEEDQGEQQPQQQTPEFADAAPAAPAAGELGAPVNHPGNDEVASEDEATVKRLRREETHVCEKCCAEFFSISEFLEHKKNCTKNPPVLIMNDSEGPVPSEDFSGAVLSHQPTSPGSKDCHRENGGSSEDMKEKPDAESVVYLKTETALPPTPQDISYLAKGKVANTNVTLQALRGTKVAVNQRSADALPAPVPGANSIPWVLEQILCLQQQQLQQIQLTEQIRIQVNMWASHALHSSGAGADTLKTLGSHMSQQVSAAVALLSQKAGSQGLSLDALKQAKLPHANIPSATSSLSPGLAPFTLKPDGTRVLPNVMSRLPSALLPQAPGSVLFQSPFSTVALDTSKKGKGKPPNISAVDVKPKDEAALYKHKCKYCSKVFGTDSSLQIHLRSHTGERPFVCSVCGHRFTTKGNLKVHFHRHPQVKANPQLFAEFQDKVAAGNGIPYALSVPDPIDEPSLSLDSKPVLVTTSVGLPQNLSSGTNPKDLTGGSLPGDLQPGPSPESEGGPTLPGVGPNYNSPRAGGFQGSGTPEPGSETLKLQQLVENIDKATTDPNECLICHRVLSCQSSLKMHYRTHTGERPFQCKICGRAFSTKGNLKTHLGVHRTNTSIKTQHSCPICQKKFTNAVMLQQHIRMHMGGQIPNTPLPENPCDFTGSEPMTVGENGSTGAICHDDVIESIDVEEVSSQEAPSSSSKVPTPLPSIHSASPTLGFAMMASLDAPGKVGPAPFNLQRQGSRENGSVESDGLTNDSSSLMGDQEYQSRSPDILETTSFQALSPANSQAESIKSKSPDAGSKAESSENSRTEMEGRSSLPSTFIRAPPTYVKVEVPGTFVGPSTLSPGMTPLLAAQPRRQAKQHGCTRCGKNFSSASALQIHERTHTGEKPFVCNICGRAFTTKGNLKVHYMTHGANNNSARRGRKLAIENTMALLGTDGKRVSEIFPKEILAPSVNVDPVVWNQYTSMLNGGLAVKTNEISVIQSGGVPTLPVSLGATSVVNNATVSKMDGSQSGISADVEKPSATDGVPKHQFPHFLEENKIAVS
Setting: 8-mer, flanks averaged, mean of replicates
Oligonucleotide	E-score
GGAGGCGA	-0.249
ATAAATCC	0.25
ATGAGAGG	-0.186
AATTGTAA	0.327
ATAGCAAC	0.0791
AGCCAGCA	-0.224
CATACAAA	0.305
CGTAGTAA	0.117
GATTATCC	-0.0659
AAGTAATA	0.32
GTGGACTA	-0.0462
CTGATTTA	0.135
AGCAGCAT	0.0102
AAAGGACG	0.0124
CGATATGC	0.0847
AGACGATG	-0.0067
ACTCATCT	0.152
CAGGCGCC	-0.265
GCTTACAA	0.232
ATTCGATG	0.0401
CCTCTGAA	-0.0803

Block 6 — method: RNA Bind-n-Seq; form: RNA; sample: in vitro; tested at: 365 nM; baseline: no-protein control; direction: higher = stronger binding
Target: RNA binding protein fox-1 homolog 2, RRM domain, GST-SBP tag (RBFOX2, Homo sapiens, UniProt O43251-10, residues 100-194)
Setting: natural RNA segment, single round, ends assumed
Residues (chain): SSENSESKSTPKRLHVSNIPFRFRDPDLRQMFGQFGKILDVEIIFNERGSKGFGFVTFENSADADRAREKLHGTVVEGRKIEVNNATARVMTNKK
Oligonucleotide	RBNS enrichment (R)
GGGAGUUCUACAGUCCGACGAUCAAUGGAAUAGAGGUCUUGAUCUUUGGAAUGCAUGCCGGUAAUGUAUUUUACAGUACAUGUUAAUAAUUUAUGUUUAAUAUUUGUAUUUGUGUUCUCUUUUGUUAUUUUACUGGAAUUCUCGGGUGCCAA	7.7
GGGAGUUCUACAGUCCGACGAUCGUGACAUAGACAUUUCUCAAAAGGGUCUGAUACAUCAAACUCCUAACAAGUAGGAGCAGCAACUAGCUAAAGAGUAGAAAGAAGCUUCCCUUAUUGUGGGUGAUGAGGCGUGGAAUUCUCGGGUGCCAA	0.434
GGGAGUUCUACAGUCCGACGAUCCCAAAUUGUUAGACAGCAUCAGGAUUGCGGAUUAUCUCAAGUAGAUUUUGUUAGAGUUCAGAGCACAGCAUCACUCUGAAGGAGUCUGUCUUAUAAAUACAUAAUUACUGUGGAAUUCUCGGGUGCCAA	0.563
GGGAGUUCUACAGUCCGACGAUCUGAGCCCGCUGGCCUCACUGGGGUGUCAGGGCUGGGCCCAGGGAUUGCUAUUUUCACGUAGGCCCUUGUCCUUGGAUACCCAGGGGAGGGAGCCACUGUCGCCGCAGCACUGGAAUUCUCGGGUGCCAA	0.342
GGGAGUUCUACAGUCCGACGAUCUCUGGAUUCCUUAUUUGAUUUAUUUAACCUAAUUAUAUUCUAAUAUUGCAAAUAUUACCAUAAGUGGGUAAAAGUAAAAUUCCUCUUCUGAAAAUGUGUCCUGUGCUUUUUGGAAUUCUCGGGUGCCAA	0.659
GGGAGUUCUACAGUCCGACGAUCCUAUACUGCACUUACGCUAUCCAGUUGCAGGUAAUUUUUUGUCUGCUAGUAGUGUUCUAGAUUAUGUCUUUCCAAAGCGCUGAGGCUGUGCACCUAUUCUGUAGUUGCAGUGGAAUUCUCGGGUGCCAA	0.921
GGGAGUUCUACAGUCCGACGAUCGAGUUCACUACCAUUUGUCAAGAAUCACCCUUUCCAAAUCCUCUGGGUUUUGACUUUUUGGCUUCCACUUCACCCAAAAUGUUAAAAUUUUUACUUAAUUCAUAGCCUUCUGGAAUUCUCGGGUGCCAA	0.594
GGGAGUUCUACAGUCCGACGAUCGAGCAGAAUAGCAGUUCAGGGUCGCUUAAGGAGUCACCACAACUUAUGUGUUGGGUGACCACAAAAUCAACAGUAACUGAGAGAAACGAAUUCAUUUUGUAAAUAAUGUUUGGAAUUCUCGGGUGCCAA	0.445
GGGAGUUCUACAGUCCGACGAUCGCAUACUGUGUAAAUAUGGACCUUUUCAGAUUAAAACGUUAAUGGAAAUGCUUUUAACUCAAACAGCAACAUCUUAGCUAUUUGUUAGUUCUCUUUUGUUGUCUUAUCAAUGGAAUUCUCGGGUGCCAA	0.522
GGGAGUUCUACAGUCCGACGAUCGUGUUUUAUUUGCCAUGUAUCAUCUUUUGUUAUCAAGAGAAGUGUAUGAUGCUUGCUUUAUGCCAUAGCCAUCUAUAUUGUAAUUUAUCUAUACAAUUAAACAAAUUUAAUGGAAUUCUCGGGUGCCAA	0.542
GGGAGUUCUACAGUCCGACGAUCUCUUGGGACUGGAAGAUAUGAUUCCCUUUCCAAUCAUCCCUUCUCUCUCCUGUCUAUACAUACACACCUACUGAAUAGAAGCCUAGCUGACAGUCUCUGAAUAGUGGUUUUGGAAUUCUCGGGUGCCAA	0.419
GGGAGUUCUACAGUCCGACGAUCUGACAGCAGGUGACCUUGUCUGCCAAGAUCUUCCUUUUGAGUGUUUAAGCCCAACUACUUGUCAUAUAUGUCUGAAUGUCAAAAGCUGUCAGCAGCACAACACAAUCUAUUGGAAUUCUCGGGUGCCAA	0.602

A few entries again (block 3):
Substitution	normalised enrichment score
R5A L7A	-0.101
F8A	0.138
P10A	0.127
F8L	0.139
R5K	0.422
G9A	0.145
C4A	0.121
